Experimental data of several laboratories.
Several values in a cell are separate wells, animals, samples, runs or records. Numbers after ± are the reported error.
Chain of UniProt P10635 (whole entry, looked up): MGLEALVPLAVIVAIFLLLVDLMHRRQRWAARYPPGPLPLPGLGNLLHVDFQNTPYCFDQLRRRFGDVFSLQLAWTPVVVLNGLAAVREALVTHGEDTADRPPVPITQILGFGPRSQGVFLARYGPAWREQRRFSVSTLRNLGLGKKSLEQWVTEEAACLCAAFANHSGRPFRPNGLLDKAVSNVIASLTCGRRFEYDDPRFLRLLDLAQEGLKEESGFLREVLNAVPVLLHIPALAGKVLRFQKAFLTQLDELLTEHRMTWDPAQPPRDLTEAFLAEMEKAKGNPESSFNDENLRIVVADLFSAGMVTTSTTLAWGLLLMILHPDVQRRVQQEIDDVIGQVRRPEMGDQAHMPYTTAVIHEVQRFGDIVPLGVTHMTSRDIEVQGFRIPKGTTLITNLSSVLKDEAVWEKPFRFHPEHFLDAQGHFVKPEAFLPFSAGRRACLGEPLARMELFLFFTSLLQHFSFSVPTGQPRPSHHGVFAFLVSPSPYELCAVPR
Chain of UniProt O15438 (whole entry, looked up): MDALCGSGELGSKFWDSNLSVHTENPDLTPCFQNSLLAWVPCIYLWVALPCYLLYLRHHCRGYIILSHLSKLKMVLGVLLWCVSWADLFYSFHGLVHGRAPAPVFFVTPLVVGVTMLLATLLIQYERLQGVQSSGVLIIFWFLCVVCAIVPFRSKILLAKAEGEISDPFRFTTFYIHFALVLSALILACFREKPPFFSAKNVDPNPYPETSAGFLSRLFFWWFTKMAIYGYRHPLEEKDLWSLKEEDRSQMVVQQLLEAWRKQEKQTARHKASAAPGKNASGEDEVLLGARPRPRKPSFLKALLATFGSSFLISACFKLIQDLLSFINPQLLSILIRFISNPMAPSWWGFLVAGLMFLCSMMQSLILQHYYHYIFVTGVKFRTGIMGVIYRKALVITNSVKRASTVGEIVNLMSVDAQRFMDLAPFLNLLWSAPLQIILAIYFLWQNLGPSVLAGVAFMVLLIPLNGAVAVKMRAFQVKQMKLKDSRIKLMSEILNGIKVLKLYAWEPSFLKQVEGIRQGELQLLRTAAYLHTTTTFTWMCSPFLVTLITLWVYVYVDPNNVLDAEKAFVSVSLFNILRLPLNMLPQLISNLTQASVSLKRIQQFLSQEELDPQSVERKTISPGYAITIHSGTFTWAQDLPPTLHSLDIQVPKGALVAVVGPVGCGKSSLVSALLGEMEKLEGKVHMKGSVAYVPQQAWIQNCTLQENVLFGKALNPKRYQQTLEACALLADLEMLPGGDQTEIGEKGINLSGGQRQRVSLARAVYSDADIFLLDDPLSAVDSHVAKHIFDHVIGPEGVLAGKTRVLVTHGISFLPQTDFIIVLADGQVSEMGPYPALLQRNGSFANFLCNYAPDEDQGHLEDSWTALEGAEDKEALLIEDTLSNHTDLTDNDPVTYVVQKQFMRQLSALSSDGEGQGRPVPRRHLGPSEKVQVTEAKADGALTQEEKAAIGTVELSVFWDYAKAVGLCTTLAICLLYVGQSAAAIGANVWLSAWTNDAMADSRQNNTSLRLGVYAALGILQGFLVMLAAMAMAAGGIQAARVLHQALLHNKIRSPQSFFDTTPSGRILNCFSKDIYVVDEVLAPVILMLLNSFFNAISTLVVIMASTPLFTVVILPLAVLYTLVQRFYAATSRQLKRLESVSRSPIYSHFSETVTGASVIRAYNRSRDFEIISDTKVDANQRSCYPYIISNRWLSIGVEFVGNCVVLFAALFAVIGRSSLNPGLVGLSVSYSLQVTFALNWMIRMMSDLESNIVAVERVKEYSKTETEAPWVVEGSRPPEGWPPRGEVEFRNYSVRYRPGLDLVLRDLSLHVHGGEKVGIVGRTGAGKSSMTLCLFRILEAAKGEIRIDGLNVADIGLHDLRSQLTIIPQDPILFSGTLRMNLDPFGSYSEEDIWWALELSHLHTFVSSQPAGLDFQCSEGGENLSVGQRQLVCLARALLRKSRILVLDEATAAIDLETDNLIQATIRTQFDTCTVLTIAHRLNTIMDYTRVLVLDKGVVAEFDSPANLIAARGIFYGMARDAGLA
Chain of UniProt Q12809 (whole entry, looked up): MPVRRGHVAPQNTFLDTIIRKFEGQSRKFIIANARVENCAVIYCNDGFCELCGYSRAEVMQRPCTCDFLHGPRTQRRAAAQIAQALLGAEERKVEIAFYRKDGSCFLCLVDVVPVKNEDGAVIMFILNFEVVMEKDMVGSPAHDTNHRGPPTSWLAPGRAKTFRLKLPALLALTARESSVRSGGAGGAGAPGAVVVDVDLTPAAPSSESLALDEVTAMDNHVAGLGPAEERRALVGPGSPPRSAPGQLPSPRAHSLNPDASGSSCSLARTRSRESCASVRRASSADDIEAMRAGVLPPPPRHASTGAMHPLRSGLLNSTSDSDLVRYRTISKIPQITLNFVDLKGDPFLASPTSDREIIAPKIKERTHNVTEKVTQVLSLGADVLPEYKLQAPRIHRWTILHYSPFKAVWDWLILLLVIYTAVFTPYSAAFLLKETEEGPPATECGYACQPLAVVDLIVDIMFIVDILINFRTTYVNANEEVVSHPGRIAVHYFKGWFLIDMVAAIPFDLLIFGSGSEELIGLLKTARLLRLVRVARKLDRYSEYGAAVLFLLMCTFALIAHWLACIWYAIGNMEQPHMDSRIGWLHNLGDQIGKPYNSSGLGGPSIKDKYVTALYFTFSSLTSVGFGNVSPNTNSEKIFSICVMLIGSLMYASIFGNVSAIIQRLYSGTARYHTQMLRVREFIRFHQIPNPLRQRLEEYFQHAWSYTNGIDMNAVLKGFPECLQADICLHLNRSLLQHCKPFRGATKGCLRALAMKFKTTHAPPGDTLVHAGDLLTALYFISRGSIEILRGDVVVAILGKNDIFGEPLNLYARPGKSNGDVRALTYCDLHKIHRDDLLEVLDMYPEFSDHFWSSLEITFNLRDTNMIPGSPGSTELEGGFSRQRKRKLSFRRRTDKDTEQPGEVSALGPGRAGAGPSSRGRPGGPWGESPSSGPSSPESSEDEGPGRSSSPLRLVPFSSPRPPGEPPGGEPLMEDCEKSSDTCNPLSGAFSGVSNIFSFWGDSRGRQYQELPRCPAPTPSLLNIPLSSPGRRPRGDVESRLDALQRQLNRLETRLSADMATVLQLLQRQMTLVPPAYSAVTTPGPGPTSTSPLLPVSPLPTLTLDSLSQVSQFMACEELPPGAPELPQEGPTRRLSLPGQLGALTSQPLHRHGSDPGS

SMILES = N#C[C@@H]1CC(F)(F)CN1C(=O)CNC(=O)c1ccnc2c(NC(=O)[C@H](CCCCNC(=O)CCOCCOCCOCCOCCOCCOCCNC(=O)CN3CCN(CC(=O)[O-])CCN(CC(=O)[O-])CCN(CC(=O)[O-])CC3)NC(=O)CCCc3ccc(I)cc3)cccc12.[177Lu+3]; tested on = U-87 MG tumour model; system = host not given, pancreas; conditions = 72 h, tumour-bearing; measurement = tracer uptake; result = 0.48 %ID/g
SMILES = Nc1nc2cc(C(=O)c3ccc(F)cc3)ccc2[nH]1; tested on = Salmonella typhimurium; assay = Ames preincubation test; system = TA1537; conditions = 78.0 µg/plate, without S9; measurement = revertants; result = 13.7 revertants/plate
SMILES = N#C[C@@H]1CC(F)(F)CN1C(=O)CNC(=O)c1ccnc2c(NC(=O)CCOCCOCCOCCOCCOCCOCCNC(=O)[C@H](CCCCNC(=O)CN3CCN(CC(=O)[O-])CCN(CC(=O)[O-])CCN(CC(=O)[O-])CC3)NC(=O)CCCc3ccc(I)cc3)cccc12.[177Lu+3]; tested on = U-87 MG tumour model; system = host not given, blood; conditions = 48 h, tumour-bearing; measurement = tracer uptake; result = 0.98 %ID/g
SMILES = N#C[C@@H]1CCCN1C(=O)CNC(=O)c1ccnc2ccc(OCCCN3CCN(C(=O)CCc4ccc(O)c(CN5CCN6CC(=O)[O][Al-]([18F])([O]C(=O)C5)[O]c5ccc(CCC(=O)N7CCN(CCCOc8ccc9nccc(C(=O)NCC(=O)N%10CCC[C@H]%10C#N)c9c8)CC7)cc5C6)c4)CC3)cc12 (stereo partly shown); tested on = U-87 MG tumour model; system = host not given, intestine; conditions = 2 h, tumour-bearing; measurement = tracer uptake; result = 4.03 %ID/g
SMILES = O=C1C2CC3CC1CC(C(=O)N1CCN(c4ccc([N+](=O)[O-])c5ncccc45)CC1)(C3)C2; tested on = Escherichia coli; assay = Ames test; system = WP2 uvrA pKM101; conditions = 0.31 µg/well, without S9 activation; scale = baseline: vehicle; measurement = fold increase in revertants; result = 0.9
SMILES = O=C(OC[C@@]1(O)C(=O)C=C[C@H]2[C@@H]1[C@H]1C=C[C@@H]2C(=O)[C@]1(O)COC(=O)c1ccccc1)c1ccccc1; tested on = SW480; assay = cell growth or viability, MTT; conditions = 50 µg/mL; measurement = viability; result = 60.2%
SMILES = C=C(NC(=O)c1csc(-c2nc3c(cc2O)-c2nc(cs2)C(=O)NC(C(C)O)C(=O)NC(=C(C)OC)c2nc(cs2)C(=O)NC2c4nc(cs4)C(=O)NC(COC(=O)c4c5c6c(cccc6n4O)COC(=O)C(OC4CC(C)(O)C(N(C)C)C(C)O4)C2OC5)c2nc-3cs2)n1)C(N)=O (stereo not shown); system = cynomolgus monkey, female, plasma; conditions = intravenous infusion, 3 mg/kg, multiple doses, day 7; measurement = clearance; result = 2.01 mL/min/kg
SMILES = CNC(=O)C1CCCN(C(=O)C2CC3CCC2N3C(=O)[C@@H]2C[C@@H](O)CN2C(=O)NCc2cccc(Cl)c2F)C1 (mixture of isomers); tested on = Cytochrome P450 2D6 (CYP2D6, Homo sapiens, UniProt P10635); assay = enzyme activity, inhibitor, time-dependent inhibition; conditions = 0.617 µM, preincubated without NADPH; measurement = dextrorphan formation; result = 158 ng/mL
SMILES = Ic1cc2nc(c1)CNCc1cc(I)cc(n1)CNC2.[Cu+2]; tested on = Cu(II)/Cu(I) redox couple; assay = cyclic voltammetry; system = DMF; conditions = 0.1 M TBAP, 100 mV/s scan; measurement = peak potential separation; result = 101 mV
SMILES = COc1cccc(OC)c1-c1cc(C(=O)NC2(C(=O)O)C3CC4CC(C3)CC2C4)nn1-c1ccc(C(=O)N(C)CCOCCOCCN(C)C(=O)[C@H](CCCCNC(=O)[C@H](CC(C)C)NC(=O)C2OC2C(=O)O)NC(=O)CN2CCN(CC(=O)[O-])CCN(CC(=O)[O-])CCN(CC(=O)[O-])CC2)cc1C(C)C.[177Lu+3] (mixture of isomers); tested on = HT-29 tumour model; system = host not given, stomach; conditions = 7 days, tumour-bearing; measurement = tracer uptake; result = 0.039 %ID/g
SMILES = CC(C)OCCOCc1ccc(OCC(O)CN(N=O)C(C)C)cc1 (stereo not shown); tested on = Salmonella typhimurium; assay = Ames test; system = TA98; conditions = 500 µg/plate, 30 % rat S9; scale = baseline: solvent control; measurement = revertant fold increase; result = 0.6 fold
SMILES = CC(C)(C)NCC(SS(=O)(=O)O)c1ccccc1 (stereo not shown); tested on = Schistosoma mansoni; assay = perfusion day 44; system = infected Swiss Webster mice; conditions = 600 mg/kg single dose, dosed day 1 post-infection; scale = baseline: vehicle control; measurement = body weight decrease; result = 9%
SMILES = O=C(c1ccc(OCCN2CCCCC2)cc1)c1c(-c2ccc(O)cc2)sc2cc(O[C@@H]3O[C@H](C(=O)O)[C@@H](O)[C@H](O)[C@H]3O)ccc12; tested on = ABCC3 (Homo sapiens, UniProt O15438); assay = substrate; system = Sf9 membrane vesicles; conditions = pH 7; measurement = intrinsic clearance; result = 31.2 µL/min/mg protein
SMILES = FC(F)(F)c1cc2nc(c1)CNCc1cc(C(F)(F)F)cc(n1)CNC2.[Cu+2]; tested on = Cu(II)/Cu(I) redox couple; assay = cyclic voltammetry; system = DMF; conditions = added: TBAP; scale = baseline: Fc/Fc+; measurement = anodic peak potential; result = -575 mV
SMILES = COc1cccc(OC)c1-c1cc(C(=O)NC2(C(=O)O)C3CC4CC(C3)CC2C4)nn1-c1ccc(C(=O)N(C)CCCN(C)CCCN(C)C(=O)[C@H](CCCCNC(=O)[C@H](CC(C)C)NC(=O)C2OC2C(=O)O)NC(=O)CN2CCN(CC(=O)[O-])CCN(CC(=O)[O-])CCN(CC(=O)[O-])CC2)cc1C(C)C.[177Lu+3] (mixture of isomers); tested on = HT-29 tumour model; system = host not given, stomach; conditions = 4 h, tumour-bearing; measurement = tracer uptake; result = 1.3 %ID/g
SMILES = O=C(Nc1cnccc1-c1ccc([18F])cc1)c1ccnc(NC(=O)C2CC2)c1; tested on = GSK-3β imaging tracer; system = FVB/NJ mice, both sexes, brain; conditions = intravenous, 2 min, early frames, no P-gp inhibitor; measurement = SUV; result = 0.94 ± 0.28
SMILES = CCN(CC)CC#CCNc1ccnc2cc(Cl)ccc12; tested on = Salmonella typhimurium; assay = mini-Ames test; system = TA102; conditions = 500.0 µg/well, with rat liver S9; measurement = revertants; result = 83 revertants/well and 90 revertants/well
SMILES = COc1cccc(OC)c1-c1cc(C(=O)NC2(C(=O)O)C3CC4CC(C3)CC2C4)nn1-c1ccc(C(=O)N(C)CCCN(C)C(=O)[C@H](CCCCNC(=O)[C@H](CC(C)C)NC(=O)C2OC2C(=O)O)NC(=O)CN2CCN(CC(=O)[O-])CCN(CC(=O)[O-])CCN(CC(=O)[O-])CC2)cc1C(C)C.[177Lu+3] (mixture of isomers); tested on = HT-29 tumour model; system = host not given, stomach; conditions = 24 h, tumour-bearing; measurement = tracer uptake; result = 0.097 %ID/g
SMILES = O=C1NC2(CC2)COc2ncc(F)cc2[C@H]2COCCN2c2ccn3ncc1c3n2; tested on = KCNH2 (Homo sapiens, UniProt Q12809); assay = potassium current, whole-cell patch clamp; system = CHO cells expressing hERG; conditions = 13.33 µM; measurement = inhibition; result = 44.2 ± 5.17%

Excerpt of the above:
SMILES = O=C1C2CC3CC1CC(C(=O)N1CCN(c4ccc([N+](=O)[O-])c5ncccc45)CC1)(C3)C2; tested on = Escherichia coli; assay = Ames test; system = WP2 uvrA pKM101; conditions = 0.31 µg/well, without S9 activation; scale = baseline: vehicle; measurement = fold increase in revertants; result = 0.9
SMILES = O=C(OC[C@@]1(O)C(=O)C=C[C@H]2[C@@H]1[C@H]1C=C[C@@H]2C(=O)[C@]1(O)COC(=O)c1ccccc1)c1ccccc1; tested on = SW480; assay = cell growth or viability, MTT; conditions = 50 µg/mL; measurement = viability; result = 60.2%
